# Measured values gathered from unrelated publications.
# Each line is one published result; not all experiments were run side by side.
# RET: Proto-oncogene tyrosine-protein kinase receptor Ret (RET, Homo sapiens, UniProt P07949)
# RET M918T: Proto-oncogene tyrosine-protein kinase receptor Ret (RET, Homo sapiens, UniProt P07949, M918T)
Structure (SMILES),target,read-out,method,concentration,relative to,remaining binding [%]
Cc1ccc(-c2c(/C=C(\C#N)C(=O)NC(C)C)n(CCCO)c3ncnc(N)c23)cc1,RET,cell-free assay,competition with immobilised ligand,1 µM,,26
C=CC(=O)N1CCc2ccc(-n3c(=O)ccc4cnc5ccc(-c6cnn(C)c6)cc5c43)cc21,"Proto-oncogene tyrosine-protein kinase receptor Ret (RET, Homo sapiens, UniProt P07949, V804M)",,KINOMEscan,1 µM,DMSO control,100
CC(C)=CC1OC(C)(C)C2C=C3C(=O)C(Cl)=CC(O)C3C3C(O)C4OC4C(=O)C132 (stereo not shown),RET,cell-free assay,competition with immobilised ligand,10 µM,,95
Nc1ncc2c(n1)-c1c([nH]c3ccc(C4=CCOCC4)cc13)CCC2,RET M918T,binding,competition with immobilised ligand,1 µM,,100
CNC1C[S+]2CC[S+]3CC[S+](C1)[Ru-4]321([N]=C=S)[n]2c3ccc(OC)cc3c3c4c(c5cc(F)c[n+]1c5c32)C(=O)NC4=O (stereo not shown),"Proto-oncogene tyrosine-protein kinase receptor Ret (RET, Homo sapiens, UniProt P07949, V804L)",,KinomeScan,0.1 µM,untreated,100
C=CC(=O)N1CCCC(n2c(=O)c3ncccc3n(Cc3ccc(Oc4ccccc4)cc3)c2=O)C1 (stereo not shown),RET,cell-free assay,competition with immobilised ligand,1 µM,,91
CCN1CCN(Cc2ccc(C(=O)Nc3ccc(C)c(NCc4cnc5[nH]ccc5c4OC)c3)cc2C(F)(F)F)CC1,RET M918T,binding,competition with immobilised ligand,1 µM,,0.2
CNC(=O)C1CCN(c2cc(C)c(F)cc2NC(=O)c2ccc(-c3cc(O)ccc3C)c(C)c2)CC1,RET M918T,binding,competition with immobilised ligand,1 µM,,27
Cc1cnc2nc1Nc1cccc(c1)COC/C=C/COCc1cc(ccc1OCCN1CCOCC1)N2,RET M918T,binding,,0.1 µM,,48
COc1c(Cl)cccc1Nc1c(-c2ccncc2C#C[C@@]2(C)CCCN2C(=O)/C=C/CN(C)C)[nH]c2c1C(=O)NCC2,RET M918T,binding,competition with immobilised ligand,3 µM,,87
